Assay results from different studies.
Compare with care: the assays were run in different laboratories. ± marks the error that the study gave.
Cell line: HCT-116

Nc1nc2nc[nH]c2c(=S)[nH]1  surviving fraction (clonogenic; 1.25 µM, 10 days): 0.986
S=P1(c2ccccc2)CCCCC1  selectivity index (MTT; 72 h; baseline: IC50 HaCaT over IC50 HCT-116): 1
O=C1Nc2c(C(F)(F)F)cccc2[C@@]1(c1ccc(O)cc1)c1ccc(OC(F)(F)F)cc1  maximal cell death (cell viability, Alamar blue; dose-response curve bottom): ~38%
O=c1c2ccccc2nc(S)n1-c1ccccc1  IC50 (cytotoxicity, LDH release; 24 h, 50% viability reduction): 1450 ± 22.2 µM
Cn1cncc1C1=CN(c2ncnc3[nH]cnc23)CCS1  CC50 (colon cancer): > 200 µM
CC(C)N1CCC(NC2CCN(c3cccc(-c4cc5cc(F)ccc5[nH]4)c3)CC2)CC1  GI50: 1.28 µM
O=C1CCP(=S)(c2ccccc2)CC1  viability reduction (trypan blue; IC50, 72 h): 18%
COc1cc(CCC[P+](c2ccccc2)(c2ccccc2)c2ccccc2)c(OC)c2c1OCO2.[I-]  TGI (SRB): -4.79 log M
CCN(CC)c1ccc(C=NNC(=O)CSc2nc3ccccc3c(=O)n2Cc2ccc(S(N)(=O)=O)cc2)c(O)c1  CC50 (NCI five-dose screen): > 100 µM
COc1c(CCC[P+](c2ccccc2)(c2ccccc2)c2ccccc2)cc2c(c1OC)OCO2.[I-]  GI50 (SRB): -5.92 log M
COc1ccc(C(=O)Nc2ccc3c(c2)C=CCP(=O)(O)O3)cc1  maximal inhibition (cell proliferation, MTT; 100 µM, 72 h, normoxia): ~30%

Repeated from above:
COc1cc(CCC[P+](c2ccccc2)(c2ccccc2)c2ccccc2)c(OC)c2c1OCO2.[I-]  TGI (SRB): -4.79 log M
